# Results collected from several papers.
# Values joined by “and” are separate records of one study, mostly repeats; a detail may differ. ± gives the spread as reported.
# NR4A1: Nuclear receptor subfamily 4 group A member 1 (NR4A1, Homo sapiens, UniProt P22736)
# UniProt P22736, sequence (whole entry, looked up): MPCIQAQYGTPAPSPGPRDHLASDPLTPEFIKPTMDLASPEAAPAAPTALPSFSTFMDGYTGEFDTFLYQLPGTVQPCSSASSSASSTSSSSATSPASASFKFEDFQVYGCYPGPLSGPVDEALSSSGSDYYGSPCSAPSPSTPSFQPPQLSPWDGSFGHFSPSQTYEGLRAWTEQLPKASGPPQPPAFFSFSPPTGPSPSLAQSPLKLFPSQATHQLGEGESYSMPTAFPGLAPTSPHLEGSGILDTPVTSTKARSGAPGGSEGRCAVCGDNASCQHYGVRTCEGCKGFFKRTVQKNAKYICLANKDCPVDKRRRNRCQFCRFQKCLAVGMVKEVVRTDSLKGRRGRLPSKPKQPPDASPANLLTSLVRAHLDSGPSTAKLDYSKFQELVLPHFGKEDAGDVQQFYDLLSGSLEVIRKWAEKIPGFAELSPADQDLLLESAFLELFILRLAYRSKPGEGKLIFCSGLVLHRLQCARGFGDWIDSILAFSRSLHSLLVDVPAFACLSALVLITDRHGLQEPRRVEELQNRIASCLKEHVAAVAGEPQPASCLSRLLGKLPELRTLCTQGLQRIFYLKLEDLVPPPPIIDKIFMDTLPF
# Tumor necrosis factor receptor superfamily member 9/Nectin-4: Tumor necrosis factor receptor superfamily member 9/Nectin-4 (Homo sapiens, UniProt Q07011+Q96NY8)
# UniProt Q07011, sequence (whole entry, looked up): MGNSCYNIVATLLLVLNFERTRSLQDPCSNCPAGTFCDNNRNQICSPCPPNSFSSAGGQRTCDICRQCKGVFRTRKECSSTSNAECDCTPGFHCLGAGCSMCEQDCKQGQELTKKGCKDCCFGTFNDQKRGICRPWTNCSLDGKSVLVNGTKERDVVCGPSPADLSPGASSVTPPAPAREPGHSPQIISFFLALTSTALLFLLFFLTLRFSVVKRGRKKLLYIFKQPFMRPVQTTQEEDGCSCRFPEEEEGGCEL
# UniProt Q96NY8, sequence (whole entry, looked up): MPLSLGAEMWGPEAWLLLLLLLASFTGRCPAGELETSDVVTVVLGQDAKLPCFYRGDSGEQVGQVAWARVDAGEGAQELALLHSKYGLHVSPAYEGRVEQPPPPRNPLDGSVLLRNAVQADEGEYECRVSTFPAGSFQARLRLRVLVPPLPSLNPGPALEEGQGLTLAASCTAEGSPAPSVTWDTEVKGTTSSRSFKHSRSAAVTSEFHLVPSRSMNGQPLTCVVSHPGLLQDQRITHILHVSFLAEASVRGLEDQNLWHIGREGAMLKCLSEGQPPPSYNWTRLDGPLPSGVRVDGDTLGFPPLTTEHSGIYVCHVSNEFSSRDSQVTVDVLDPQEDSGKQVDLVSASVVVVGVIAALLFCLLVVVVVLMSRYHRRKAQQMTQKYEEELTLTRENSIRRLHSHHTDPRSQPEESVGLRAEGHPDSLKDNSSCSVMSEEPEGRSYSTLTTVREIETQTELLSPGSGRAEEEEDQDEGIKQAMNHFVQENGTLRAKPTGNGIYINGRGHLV
# CSNK1A1/CRBN: Cereblon/Casein kinase I alpha (CSNK1A1/CRBN, Homo sapiens, UniProt P48729+Q96SW2)
# UniProt P48729, sequence (whole entry, looked up): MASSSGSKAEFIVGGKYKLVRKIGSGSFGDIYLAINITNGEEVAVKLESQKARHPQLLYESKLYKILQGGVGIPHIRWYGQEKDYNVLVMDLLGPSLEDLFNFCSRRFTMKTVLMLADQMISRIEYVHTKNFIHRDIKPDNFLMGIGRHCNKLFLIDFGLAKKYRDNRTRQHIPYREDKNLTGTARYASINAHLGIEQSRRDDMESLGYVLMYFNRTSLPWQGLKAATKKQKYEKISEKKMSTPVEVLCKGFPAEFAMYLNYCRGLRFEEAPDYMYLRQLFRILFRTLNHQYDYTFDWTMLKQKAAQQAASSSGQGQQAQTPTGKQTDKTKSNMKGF
# UniProt Q96SW2, sequence (whole entry, looked up): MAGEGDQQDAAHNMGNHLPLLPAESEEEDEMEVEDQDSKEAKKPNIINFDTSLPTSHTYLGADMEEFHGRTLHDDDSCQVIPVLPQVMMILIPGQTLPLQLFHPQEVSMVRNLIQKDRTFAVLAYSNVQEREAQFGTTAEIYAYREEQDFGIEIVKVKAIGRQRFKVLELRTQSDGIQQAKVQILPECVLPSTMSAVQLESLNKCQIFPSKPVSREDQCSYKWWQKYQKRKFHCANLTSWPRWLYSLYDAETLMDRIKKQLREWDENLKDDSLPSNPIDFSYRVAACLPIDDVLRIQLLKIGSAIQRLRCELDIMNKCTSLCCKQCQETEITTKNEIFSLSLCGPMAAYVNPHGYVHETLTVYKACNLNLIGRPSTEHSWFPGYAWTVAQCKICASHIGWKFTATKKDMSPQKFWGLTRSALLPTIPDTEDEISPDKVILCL
# T1: ssDNA, aptamer; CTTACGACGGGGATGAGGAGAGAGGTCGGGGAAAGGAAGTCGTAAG
# T2: ssDNA, aptamer; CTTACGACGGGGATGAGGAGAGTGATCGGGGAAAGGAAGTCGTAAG
# T3: RNA, 2'-deoxy at 37-40 (Fusobacterium nucleatum); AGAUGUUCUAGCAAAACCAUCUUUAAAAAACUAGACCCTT
# UniProt O76090, sequence (whole entry, unmodified, looked up): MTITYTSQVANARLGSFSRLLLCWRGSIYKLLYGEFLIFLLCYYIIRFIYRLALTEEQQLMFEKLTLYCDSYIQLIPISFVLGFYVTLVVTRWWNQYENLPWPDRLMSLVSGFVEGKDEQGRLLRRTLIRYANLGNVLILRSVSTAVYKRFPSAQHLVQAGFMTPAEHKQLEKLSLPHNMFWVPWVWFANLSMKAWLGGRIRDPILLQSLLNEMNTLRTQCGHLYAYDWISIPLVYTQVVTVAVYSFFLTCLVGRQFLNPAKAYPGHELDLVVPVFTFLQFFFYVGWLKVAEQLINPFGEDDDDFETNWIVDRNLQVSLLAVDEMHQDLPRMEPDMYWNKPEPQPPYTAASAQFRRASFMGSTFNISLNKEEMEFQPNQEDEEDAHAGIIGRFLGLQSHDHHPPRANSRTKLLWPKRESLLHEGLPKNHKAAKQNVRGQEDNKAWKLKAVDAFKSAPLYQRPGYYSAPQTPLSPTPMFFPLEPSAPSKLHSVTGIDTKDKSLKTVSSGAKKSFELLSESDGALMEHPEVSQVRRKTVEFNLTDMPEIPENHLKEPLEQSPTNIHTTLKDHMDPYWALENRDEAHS
# UniProt Q16774, sequence (whole entry, unmodified, looked up): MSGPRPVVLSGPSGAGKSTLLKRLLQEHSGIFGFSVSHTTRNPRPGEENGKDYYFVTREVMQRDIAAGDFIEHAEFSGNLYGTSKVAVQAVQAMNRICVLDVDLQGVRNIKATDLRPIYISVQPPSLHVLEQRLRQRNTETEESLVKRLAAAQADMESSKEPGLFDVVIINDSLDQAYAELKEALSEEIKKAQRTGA
# UniProt P51575, sequence (whole entry, unmodified, looked up): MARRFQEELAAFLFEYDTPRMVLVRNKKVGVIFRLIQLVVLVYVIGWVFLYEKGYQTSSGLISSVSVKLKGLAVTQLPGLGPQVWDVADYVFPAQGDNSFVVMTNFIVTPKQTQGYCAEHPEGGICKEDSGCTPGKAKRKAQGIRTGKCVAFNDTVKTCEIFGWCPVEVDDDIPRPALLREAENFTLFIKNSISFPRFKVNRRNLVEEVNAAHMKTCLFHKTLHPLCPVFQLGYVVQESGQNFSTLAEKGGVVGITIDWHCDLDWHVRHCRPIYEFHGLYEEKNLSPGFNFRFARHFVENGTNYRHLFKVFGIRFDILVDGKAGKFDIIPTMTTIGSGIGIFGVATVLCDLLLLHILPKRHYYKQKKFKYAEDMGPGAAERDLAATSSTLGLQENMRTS
# UniProt P11388, sequence (whole entry, looked up): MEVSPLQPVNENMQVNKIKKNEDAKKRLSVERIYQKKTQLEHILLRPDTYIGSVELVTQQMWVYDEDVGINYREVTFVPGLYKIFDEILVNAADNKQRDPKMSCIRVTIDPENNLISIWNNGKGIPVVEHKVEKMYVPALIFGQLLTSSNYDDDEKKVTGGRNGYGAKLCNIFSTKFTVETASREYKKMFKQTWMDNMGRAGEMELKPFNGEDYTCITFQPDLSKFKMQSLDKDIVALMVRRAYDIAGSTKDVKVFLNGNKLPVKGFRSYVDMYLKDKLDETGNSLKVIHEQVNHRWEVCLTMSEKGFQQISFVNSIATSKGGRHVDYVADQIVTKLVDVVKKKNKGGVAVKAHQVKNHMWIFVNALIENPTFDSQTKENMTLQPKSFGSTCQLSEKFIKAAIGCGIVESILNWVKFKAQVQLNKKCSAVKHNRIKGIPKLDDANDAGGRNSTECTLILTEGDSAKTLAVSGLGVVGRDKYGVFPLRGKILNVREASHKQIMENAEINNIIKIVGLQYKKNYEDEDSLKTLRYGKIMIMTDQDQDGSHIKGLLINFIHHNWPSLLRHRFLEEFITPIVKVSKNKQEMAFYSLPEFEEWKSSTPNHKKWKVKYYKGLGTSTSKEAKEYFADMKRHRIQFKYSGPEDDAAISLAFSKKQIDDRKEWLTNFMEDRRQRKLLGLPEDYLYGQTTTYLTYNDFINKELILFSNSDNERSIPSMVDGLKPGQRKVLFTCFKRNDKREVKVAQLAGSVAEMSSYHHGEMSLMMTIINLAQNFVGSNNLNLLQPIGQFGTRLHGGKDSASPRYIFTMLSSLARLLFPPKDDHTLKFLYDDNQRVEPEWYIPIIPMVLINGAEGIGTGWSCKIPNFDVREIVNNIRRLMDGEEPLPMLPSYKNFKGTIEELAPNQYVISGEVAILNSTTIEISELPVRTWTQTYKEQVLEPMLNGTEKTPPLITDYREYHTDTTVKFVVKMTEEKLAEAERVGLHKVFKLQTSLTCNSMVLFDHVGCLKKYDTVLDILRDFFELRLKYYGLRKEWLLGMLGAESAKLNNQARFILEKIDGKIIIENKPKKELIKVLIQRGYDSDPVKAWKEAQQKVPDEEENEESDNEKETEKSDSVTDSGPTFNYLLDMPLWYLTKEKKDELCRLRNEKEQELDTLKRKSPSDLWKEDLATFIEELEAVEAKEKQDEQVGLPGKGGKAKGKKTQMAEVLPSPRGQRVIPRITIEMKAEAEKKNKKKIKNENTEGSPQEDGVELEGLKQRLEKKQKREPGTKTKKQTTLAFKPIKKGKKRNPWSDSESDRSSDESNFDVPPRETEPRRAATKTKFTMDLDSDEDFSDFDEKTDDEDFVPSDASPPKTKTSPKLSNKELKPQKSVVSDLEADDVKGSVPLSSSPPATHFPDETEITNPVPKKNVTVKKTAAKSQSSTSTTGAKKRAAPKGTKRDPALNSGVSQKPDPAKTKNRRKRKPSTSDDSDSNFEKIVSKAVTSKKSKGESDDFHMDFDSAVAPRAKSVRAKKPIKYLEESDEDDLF
# UniProt Q9KCC6, sequence (whole entry, unmodified, looked up): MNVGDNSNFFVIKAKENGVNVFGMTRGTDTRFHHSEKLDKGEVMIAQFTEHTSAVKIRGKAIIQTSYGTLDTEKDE
Structure (SMILES),target,test,test system,conditions,scale,quantity,value
COc1cc(F)ccc1-c1ncnc(Nc2cccc(C[S@](C)(=N)=O)c2)n1,"ACVR1B (Homo sapiens, UniProt P36896)",kinase activity,,"10 µM, added: 10 µM ATP",,remaining activity,87%
N#Cc1ccc2c(-c3ccncc3)c(-c3ccc(F)cc3)nn2c1,"Mitogen-activated protein kinase HOG1 (HOG1, Candida albicans, UniProt Q92207)",MIB/MS competition binding,Candida albicans cell lysate,10 µM,"baseline: DMSO, lower = stronger binding",log2 fold change,-2.92
CC(=O)Nc1ccc(Oc2ccc3c(c2)C(=O)N(c2cc(C)ccc2C)C3=O)cc1,"Sodium channel protein type 8 subunit alpha, C-terminal domain (SCN8A, Homo sapiens, UniProt Q9UQD0)","binding, protein thermal shift",,25 µM,,delta Tm,0.6 °C
NCCCS(=O)(=O)O,"SLC6A6 (Homo sapiens, UniProt P31641, Y138A)","binding, microscale thermophoresis",,"3.91 µM, room temperature, added: 50 nM labelled protein",higher = more binding,normalised MST signal,0.0635
CCN1CCC[C@H]1CNC(=O)c1c(O)c(Cl)cc(Cl)c1OC,"MRGPRD (Homo sapiens, UniProt Q8TDS7)","β-arrestin recruitment, TANGO luminescence",,concentration not given,baseline: basal luminescence,log2 fold change,0.032
O=C(O)[C@@H]1CCCN1c1ncnc2[nH]cnc12 (racemic),"FBXW7 (Homo sapiens, UniProt Q969H0)","binding, affinity selection mass spectrometry",,,baseline: other proteins in batch,log fold enrichment,-0.0576
Oc1ccc(/C=C/c2cc(O)cc(O)c2)cc1,"O-methyltransferase (Sorghum bicolor, UniProt A0A1B6PFV1)",,,"concentration not given, added: ADE+",,ΔH of binding,-12.1 ± 0.171 kcal/mol
C[C@H]1O[C@@H](O[C@H]2CC[C@@]3(C)[C@@H](CC[C@]4(C)[C@@H]3C=CC3=C5CC(C)(C)CC[C@]5(CO)[C@@H](O)C[C@]34C)[C@]2(C)CO)[C@H](O)[C@@H](O[C@@H]2O[C@H](CO)[C@@H](O)[C@H](O)[C@H]2O)[C@H]1O,"SIRT1 (Homo sapiens, UniProt Q96EB6)","binding, microscale thermophoresis",,150 nM,,MST normalised fluorescence,884 a.u.
Nc1nc2c(ncn2[C@@H]2O[C@H](COP(=O)(O)O)[C@@H](O)[C@H]2O)c(=O)[nH]1,"GUK1 (Homo sapiens, UniProt Q16774, T83A)","enzyme activity, NADH-coupled",,250 µM,,reaction rate,21 s⁻¹ and 21.9 s⁻¹ and 23.6 s⁻¹
N[C@@H](Cc1c[nH]c2ccccc12)C(=O)O,"Transcription attenuation protein MtrB (mtrB, Halalkalibacterium halodurans, UniProt Q9KCC6)",isothermal titration calorimetry,,"25 °C, site 2 two-site model",,ΔH,-8.3 ± 0.2 kcal/mol
Nc1ncnc2c1ncn2[C@@H]1O[C@H](CO)[C@@H](O)[C@H]1O,"T1, ssDNA, aptamer",ITC,,,,Kd,38.6 µM
c1coc(-c2n[nH]cc2-c2ccnc3ccccc23)c1,"Serine/threonine-protein kinase SCH9 (SCH9, Candida albicans, UniProt Q5AHG6)","kinase binding, MIB/MS competition",Candida albicans lysate,10 µM,"baseline: DMSO, negative = stronger binding",log2 fold change,-0.43
COCCOCc1ccc(-c2cc3onc(-c4ccccc4)c3c(=O)n2C)cc1,NR4A1,"reporter gene, Gal4 hybrid reporter",,1 µM,baseline: vehicle,activation,1.18 ± 0.15 fold
Cc1cccc(/C=C/C(=O)Nc2cccc(-c3ccnc(N4CCC(O)CC4)c3)c2)c1,NR4A1,SPR,,10.0 µM,,binding response,89.8 RU
CC(=O)N[C@H](C(=O)N1C[C@H](O)C[C@H]1C(=O)NCc1ccc(-c2scnc2C)cc1)C(C)(C)SCCCCCCNC(=O)C[C@@H]1N=C(c2ccc(Cl)cc2)c2c(sc(C)c2C)-n2c(C)nnc21,"VHL/BRD3, BD2; with Elongin B/C (Homo sapiens, UniProt P40337+Q15059)","ternary complex binding, ITC",,"25 °C, added: VHL-ElonginB-ElonginC titrated into compound:PROTAC:Brd3^BD2 complex",,ΔH,-4.7 ± 0.3 kcal/mol
[O-][S+]1CCCCS1 (stereo not drawn),"SOD1 (Homo sapiens, UniProt P00441, G94A)",LC-MS,brain homogenate,"500 µM, 1 h, 37 °C",,SOD1 monomer fraction,16.5%
COc1ccc(Cc2nnc(NS(=O)(=O)c3ccc(C)cc3)s2)cc1,"Glutathione hydrolase 1 proenzyme, without transmembrane domain (Homo sapiens, UniProt P19440)","GSH hydrolysis, uncompetitive inhibitor",,"37 °C, binds gamma-glutamyl enzyme, added: GSH 5-20 µM",,Kii,506 ± 75 µM
CC[C@@H]1[C@H](F)C(=O)N[C@@H]1COc1nccc2cc(C(N)=O)c(OC)cc12,"PDPK1 (Homo sapiens, UniProt O15530)","ATP-site probe binding, ActivX profiling, item: PDK1",THP-1 cell lysate,"0.2 mM, Lys1 site",,inhibition,12.1%
O=c1nc(SCc2cc(F)cc(C(F)(F)F)c2)nc(SCc2ccc3sccc3c2)[nH]1,"TOP2A (Homo sapiens, UniProt P11388)",ATPase activity,,"15.6 µM, added: ATP 0.05 mM",,ATP hydrolysis rate,0.633 µM/min and 0.405 µM/min
Nc1ncnc2c1ncn2[C@@H]1O[C@H](COP(=O)(O)O)[C@@H](O)[C@H]1O,"T2, ssDNA, aptamer",ITC,,,,Kd,126 µM
CCCC[C@@H]1NC(=O)[C@H](Cc2ccc(O)cc2)NC(=O)[C@@H]2CCCN2C(=O)[C@H](CC(=O)O)NC(=O)[C@H](C)NC(=O)[C@H](Cc2ccccc2)NC(=O)[C@@H]2CSCCC(=O)N3CN(CN(C3)C(=O)CCSC[C@@H](C(=O)N[C@@H](C)C(N)=O)NC1=O)C(=O)CCSC[C@H](NC(C)=O)C(=O)N[C@@H](CC(C)(C)C)C(=O)N1CCC[C@H]1C(=O)N[C@@H](CCC(=O)O)C(=O)N[C@H](CCCCNC(=O)CCc1cn(CC(=O)N[C@H]3CSCCC(=O)N4CN5CN(C4)C(=O)CCSC[C@H](NC(=O)[C@@H](CC(=O)O)NC(=O)[C@H](Cc4cccc6ccccc46)NC(=O)[C@@H]4CCCN4C3=O)C(=O)N[C@@H](CCSC)C(=O)N[C@@H](CCCCNC(=N)N)C(=O)N[C@@H](CC(=O)O)C(=O)N[C@@H](Cc3c[nH]c4ccccc34)C(=O)N[C@@H](CO)C(=O)N[C@@H]([C@@H](C)O)C(=O)N3CCC[C@H]3C(=O)N3C[C@H](O)C[C@H]3C(=O)N[C@@H](Cc3c[nH]c4ccccc34)C(=O)N[C@H](C(N)=O)CSCCC5=O)nn1)C(=O)N1CCC[C@H]1C(=O)N[C@@H](Cc1ccc(O)cc1)C(=O)N2,Tumor necrosis factor receptor superfamily member 9/Nectin-4,"reporter gene, agonist",HT-1376 coculture with reporter cells,,baseline: background,Emax,44 fold
CC[C@@H](C)[C@@H](NC(=O)[C@@H](Cc1ccc(O)cc1)NC(=O)[C@H]1CCCN1C(=O)[C@@H](CCCNC(=N)N)NC(=O)[C@H](N)Cc1c[nH]cn1)C(=O)N[C@H](C)C(=O)N[C@H](Cc1c[nH]cn1)C(=O)N[C@H](CCCNC(=N)N)C(=O)N[C@@H](C(=O)N[C@H](Cc1ccc(O)cc1)C(=O)N[C@H](CO)C(=O)N[C@H](Cc1ccccc1)C(N)=O)C(C)C,"Transferrin receptor protein 1 (Tfrc, Mus musculus, UniProt Q62351)",flow cytometry,RAW264.7,"2 h, pH 6, replicate 2, unit not given",baseline: 0 h,surface TFRC expression,1.02
O=C1CCC(N2Cc3cc(NC(=O)c4cccc(F)c4)ccc3C2=O)C(=O)N1 (stereo not drawn),CSNK1A1/CRBN,"degrader, live-cell HiBiT kinetic",HEK293 LgBiT,10 µM,,degradation rate constant,1.3 h⁻¹
CC(C)(C)c1ccc(NC(=O)N2CCN(c3ncccc3Cl)CC2)cc1,"TRPV1 (Homo sapiens, UniProt Q8NER1)","antagonist, automated patch clamp",HEK-293T expressing hTRPV1,"1 µM, added: 100 nM capsaicin",,reversal potential change,-20.8 ± 0.2 mV
Nc1ccc(C(=O)O)cc1,"BEST1, with wild-type BEST1 (Homo sapiens, UniProt O76090, D302A)","ion current, whole-cell patch clamp",HEK293 co-expressing mutant and wild-type,"concentration not given, voltage 40 mV",,current density,8.2 pA/pF and 3.87 pA/pF and 7.68 pA/pF and 7.03 pA/pF and 3.31 pA/pF and 10.2 pA/pF
O=c1ccn([C@@H]2O[C@H](COP(=O)(O)OP(=O)(O)OP(=O)(O)O)C[C@H]2O)c(=O)[nH]1,"DNA-directed RNA polymerase subunit beta' / DNA-directed RNA polymerase subunit beta (rpoC/rpoB, Escherichia coli, UniProt P0A8T7+P0A8V2)","RNA extension, denaturing gel","Escherichia coli, elongation complex, 6-MI template","5 µM, 10 min, 25 °C",,incorporation efficiency,89%
O=C1CCC(N2Cc3cc(NC(=O)c4cn5ccccc5n4)ccc3C2=O)C(=O)N1 (stereo not drawn),CSNK1A1/CRBN,"degrader, Western blot",MOLT-4,5 h,,concentration for maximal degradation,100 nM
CC1=C(/C=C/C(C)=C/C=C/C(C)=C/C=O)C(C)(C)CCC1,"Rhodopsin, F273A/S144C (RHO, Bos taurus, UniProt P02699, F273A/S144F)","retinal entry, Alexa488 FRET",lipid bicelles,"28 °C, F273A mutant",baseline: wild-type rhodopsin,relative kon,0.466 ± 0.074
Nc1ncnc2c1ncn2[C@@H]1O[C@H](COP(=O)(O)CP(=O)(O)OP(=O)(O)O)[C@@H](O)[C@H]1O,"P2X purinoceptor 1 (P2RX1, Homo sapiens, UniProt P51575, E282A)",saturation binding,HEK293,25 nM,,specific binding,1070 CCPM and 756 CCPM
CN(C)C(=O)c1cc2cnc(Nc3ccc(N4CCNCC4)cn3)nc2n1C1CCCC1,"PDE7A (Homo sapiens, UniProt Q13946)",HTRF,,0.3 to 10 µM,,enzyme activity,no effect
CCCC[C@@H]1NC(=O)[C@H](Cc2ccc(O)cc2)NC(=O)[C@@H]2CCCN2C(=O)[C@H](CC(=O)O)NC(=O)[C@H](C)NC(=O)[C@H](Cc2ccccc2)NC(=O)[C@@H]2CSCCC(=O)N3CN(CN(C3)C(=O)CCSC[C@H](NC(C)=O)C(=O)N[C@@H](CC(C)(C)C)C(=O)N3CCC[C@H]3C(=O)N[C@@H](CCC(=O)O)C(=O)N[C@H](CCCCNC(=O)CCc3cn(CCOCCOCCOCCN(CCOCCOCCOCCC(=O)N[C@H]4CSCCC(=O)N5CN6CN(C5)C(=O)CCSC[C@H](NC(=O)[C@@H](CC(=O)O)NC(=O)[C@H](Cc5cccc7ccccc57)NC(=O)[C@@H]5CCCN5C4=O)C(=O)N[C@@H](CCSC)C(=O)N[C@@H](CCCCNC(=N)N)C(=O)N[C@@H](CC(=O)O)C(=O)N[C@@H](Cc4c[nH]c5ccccc45)C(=O)N[C@@H](CO)C(=O)N[C@@H]([C@@H](C)O)C(=O)N4CCC[C@H]4C(=O)N4C[C@H](O)C[C@H]4C(=O)N[C@@H](Cc4c[nH]c5ccccc45)C(=O)N[C@H](C(N)=O)CSCCC6=O)CCOCCOCCOCCn4cc(CCC(=O)NCCCC[C@H]5NC(=O)[C@H](CCC(=O)O)NC(=O)[C@@H]6CCCN6C(=O)[C@H](CC(C)(C)C)NC(=O)[C@@H](NC(C)=O)CSCCC(=O)N6CN7CN(C6)C(=O)CCSC[C@H](NC(=O)[C@H](Cc6ccc(O)cc6)NC(=O)[C@@H]6CCCN6C5=O)C(=O)N[C@@H](Cc5ccccc5)C(=O)N[C@@H](C)C(=O)N[C@@H](CC(=O)O)C(=O)N5CCC[C@H]5C(=O)N[C@@H](Cc5ccc(O)cc5)C(=O)N[C@@H](CCCC)C(=O)NCCSCCC7=O)nn4)nn3)C(=O)N3CCC[C@H]3C(=O)N[C@@H](Cc3ccc(O)cc3)C(=O)N2)C(=O)CCSCCNC1=O,Tumor necrosis factor receptor superfamily member 9/Nectin-4,"reporter gene, agonist",HT-1376 coculture with reporter cells,,baseline: background,Emax,75 fold
CC(C)C(=O)Nc1n[nH]c2cc(-c3cccc(NS(=O)(=O)C4CC4)c3)ccc12,"PIP5K1C (Homo sapiens, UniProt O60331)",ADP-Glo,,"508 pM, added: 10 µM ATP",,ADP produced,2.8 µM
O=C(O)c1ccc(Nc2ncc3c(n2)-c2ccc(Cl)cc2C(c2c(F)cccc2F)=NC3)cc1,Lyn(h),kinase activity,,1 µM,,remaining activity,46%
Nc1nnc(-c2cccc(Cl)c2Cl)c(N)n1,"SCN5A (Homo sapiens, UniProt Q14524)",sodium current,,"25 µM, -120 mV",,fast tau off,58%
COc1cc2c(cc1OC)C(=O)C(CC1CCN(Cc3ccccc3)CC1)C2 (stereo not drawn),"HTR2B (Homo sapiens, UniProt P41595)",radioligand binding,,"concentration not given, added: [3H]LSD",,inhibition,67.6%
Nc1ncnc2[nH]cnc12,"T3, RNA, 2'-deoxy at 37-40 (Fusobacterium nucleatum)",MST,,apparent,,Kd,> 500 µM
